Results collected from several papers.
Numbers after ± are the reported error.

Molecule	assay	system	conditions	scale	endpoint	result
Cn1cnc(C[C@H](NC(=O)[C@@H]2CCC(=O)C2)C(=O)N2CCC[C@H]2C(N)=O)c1		Swiss albino mice	intravenous, 10 µmol/kg, together with: pentobarbital 50 mg/kg i.p. 10 min later		sleeping time	28.2 ± 1.7 min
CC1(C)C2CCC1(C)C(OC(=O)C(O)Cc1ccc(O)c(O)c1)C2 (stereo not drawn)		C57BL/6 mouse, cerebral ischemia-reperfusion	iv, 12 mg/kg	relative to: untreated model	brain GSH level	increased
cilengitide		Sprague-Dawley rats, ethanol control, colon	ip, 18 mg/kg/day, 42 d		collagen deposition	21 ± 2.2 % muscularis volume
COc1ccc2ccc(=O)oc2c1CC=C(C)C	short-circuit current	rat distal colonic mucosa	mucosal and serosal application, together with: amiloride and indomethacin 10 µmol/L		concentration for maximal Cl− secretion	5 µmol/L
insulin lispro	euglycemic clamp	obese type 2 diabetes patients	subcutaneous, 30 units		total glucose infused	364 mg/kg
C[C@@H]1COCCN1c1cc([C@]2(O)C[C@H]3CC[C@@H](C2)O3)c2cnn(-c3cc[nH]n3)c2n1	refers to: phospho-DNA-PKcs	mouse, LoVo xenograft, tumour	7 mg/kg daily for 7 days, 24 h after last dose	relative to: background	fold induction	2.7
COc1ccc([C@H](CC(=O)O)N2CCN(CCCc3ccc4c(n3)NCCC4)C2=O)cn1	Masson's trichrome staining	obese ZSF1 rat, kidney	400 mg/kg/day, 28 weeks	relative to: obese vehicle	kidney fibrosis score	decreased
C[C@H]1C[C@H]2CSC(N)=N[C@@]2(c2nc(NC(=O)c3ccc(OC(F)F)cn3)cs2)CO1	refers to: CSF Aβx-40	healthy adults	275 mg once daily, 14 days, day 15	relative to: placebo-adjusted baseline	change from baseline	-86.3%
CC(=O)O[C@@]12CO[C@@H]1C[C@H](O)[C@@]1(C)C(=O)[C@H](O)C3=C(C)[C@@H](OC(=O)[C@H](O)[C@@H](NC(=O)OC(C)(C)C)c4ccccc4)C[C@@](O)([C@@H](OC(=O)c4ccccc4)[C@H]21)C3(C)C		mouse, PC-3 xenograft	5 mg/kg once weekly for 3 weeks, day 11 after inoculation, started after 2 weeks growth		tumour volume	78.8 ± 16 mm3
Cc1cc(C)c(/C=C2\C(=O)Nc3ccccc32)[nH]1	MRI	human	concentration not given, 11.4 months		tumour area	1.22 cm²
CC(C)C[C@H](NC(=O)[C@H](CO)NC(=O)[C@H](CCCNC(=N)N)NC(=O)[C@H](CC(=O)O)NC(=O)[C@H](CCC(=O)O)NC(=O)[C@H](C)NC(=O)[C@@H]1CCCN1C(=O)[C@H](C)NC(=O)[C@H](CCC(=O)O)NC(=O)[C@@H]1CCCN1C(=O)[C@@H]1CCCN1)C(N)=O		F344 rat, unilateral 6-OHDA lesion	intranasal, 300 µg daily, 2 weeks after lesion, together with: d-amphetamine 2.5 mg/kg i.p.	relative to: vehicle	reduction of rotation	55%
CC(C)[C@@H]1NC(=O)[C@@H]2Cc3ccc(cc3)O[C@H]3C[C@H](NC3=O)C(=O)N3CCC[C@H]3C(=O)N[C@@H](Cc3ccc(O)cc3)C(=O)N[C@@H](C(=O)N[C@@H](C(C)C)C(=O)N2)c2cc(ccc2O)C[C@@H](C(=O)O)NC1=O	echocardiography	ICR mice, doxorubicin heart failure	intraperitoneal, 100 mg/kg daily, day 28		LV fractional shortening	increased
CCOC(=O)CSc1nnc(C23CC4CC(CC(C4)C2)C3)n1-c1ccccc1	paw oedema	rat	intraperitoneal, 20 mg/kg		inhibition in vivo	44.6%
COc1ccc(/C=C\c2cc(OC)c(OC)c(OC)c2)cc1OP(=O)(O)O		mouse S-180 tumour	intravenous, 20 mg/kg CA4 equivalent, 2 days after last dose, 7 days daily dosing		tumour weight	0.91 ± 0.36 g
CC1CNc2c(cccc2S(=O)(=O)N[C@@H](CCCNC(=N)N)C(=O)N2CC[C@@H](C)C[C@@H]2C(=O)O)C1 (stereo partly drawn)	platelet activation, inhibitor, flow cytometry, refers to: CD62P	human whole blood	together with: tissue factor		EC50	22 nM
CS(=O)(=O)c1ccc(-c2nc3ccccn3c2Nc2ccccc2)cc1	formalin test	male Wistar rat	intraperitoneal, 40 mg/kg	relative to: control group	pain score AUC	decreased
CN(C(=O)c1c(Oc2ccc(F)cc2)nc2ncccn12)c1ccc(Cl)cc1		Golden Syrian hamster, male, diet-induced obese, plasma	intraperitoneal, 6 mg/kg, week 5	relative to: vehicle	remnant cholesterol reduction	41.6%
Ac-CSNLSTCXLGKLSQDLHRLQTYPKTDVGANAP-NH2 (N-acetyl, C-amide)		peptide, ZDF rats	1.5 and 3 nmol/kg every 3 days, 8 weeks	relative to: vehicle	plasma insulin	increased
Cc1ccn2c(Nc3ccc(Cl)cc3)c(-c3ccc(S(C)(=O)=O)cc3)nc2c1	formalin test	male Wistar rat	intraperitoneal, 40 mg/kg	relative to: control group	pain score AUC	decreased
Nc1ncnc2c1ncn2[C@H]1[C@H](O)[C@H](O)[C@@]2(CP(=O)(O)O)C[C@H]12	echocardiography	CSQ heart failure mouse	subcutaneous minipump, 3.3 µM, 28 days	relative to: vehicle	fractional shortening	no effect

Molecule	assay	system	conditions	scale	endpoint	result
insulin aspart		human, plasma	sc, 0.2 U/kg, together with: standardized meal		lowest NEFA concentration	0.11 mmol/L
O=C(c1cc(Cc2n[nH]c(=O)c3ccccc23)ccc1F)N1CCN(C(=O)C2CC2)CC1	flow cytometry	PBMCs, platinum-sensitive ovarian cancer patients	dose not given, 28 days, together with: pegylated liposomal doxorubicin		γH2AX phosphorylation	stable
O=C(O)CNC(=O)c1c(O)c2ccccc2n(OCC2CC2)c1=O		human	single ascending doses	relative to: placebo	haematocrit, haemoglobin, reticulocytes	no effect
C[C@@H]1CC(=O)NN=C1c1ccc(N)cc1		guinea pig papillary muscle	up to 30 µM, without forskolin	relative to: baseline	increase in contraction force	312 ± 118 mg
CCCCCCCCCCCCCCCC(=O)NCCCC[C@H](NC(=O)[C@H](CCC(=O)O)NC(=O)[C@H](CCC(=O)O)NC(=O)[C@H](Cc1ccc(O)cc1)NC(=O)[C@H](CCC(=O)O)NC(=O)CCCCCNC(=S)Nc1ccc2c(c1)C(=O)OC21c2ccc(O)cc2Oc2cc(O)ccc21)C(=O)N[C@@H](Cc1ccc(O)cc1)C(=O)N[C@@H](CCC(=O)O)C(=O)NCC(=O)NCC(=O)NCC(=O)NCC(=O)N[C@@H](CO)C(=O)NCC(=O)NCC(=O)NCC(=O)NCC(=O)N[C@@H](CO)C(=O)N[C@@H](Cc1ccccc1)C(=O)N[C@@H](CC(N)=O)C(=O)N1CCC[C@H]1C(=O)N[C@@H](CCCNC(=N)N)C(=O)N[C@@H](Cc1c[nH]cn1)C(=O)NC(C)(C)C(=O)N[C@@H](CCC(=O)O)C(=O)NCC(=O)N[C@H](C(=O)N[C@@H](Cc1ccccc1)C(=O)N[C@H](C(=O)N[C@@H](CO)C(=O)N[C@@H](CC(=O)O)C(=O)N[C@H](C(=O)N[C@@H](CO)C(=O)N[C@@H](CO)C(=O)N[C@@H](Cc1ccc(O)cc1)C(=O)N[C@@H](CC(C)C)C(=O)N[C@@H](CCC(=O)O)C(=O)NCC(=O)N[C@@H](CCC(N)=O)C(=O)N[C@@H](C)C(=O)N[C@@H](C)C(=O)N[C@@H](CCCCN)C(=O)N[C@@H](CCC(=O)O)C(=O)N[C@@H](Cc1ccccc1)C(=O)N[C@H](C(=O)N[C@@H](C)C(=O)N[C@@H](Cc1c[nH]c2ccccc12)C(=O)N[C@@H](CC(C)C)C(=O)N[C@H](C(=O)N[C@@H](CCCCN)C(=O)NCC(=O)N[C@@H](CCCNC(=N)N)C(=O)NCC(=O)O)C(C)C)[C@@H](C)CC)C(C)C)[C@@H](C)O)[C@@H](C)O		db/db mouse	subcutaneous, 90 nmol/kg twice weekly, 8 weeks		serum ALT	45 ± 3.5 IU/L
CSCC[C@@H]1NC(=O)[C@H](CC(=O)O)NC(=O)CNC(=O)[C@H](CCCNC(=N)N)NC(=O)[C@H](C)NC(=O)[C@H](CCC(=O)O)NC(=O)[C@H](CCCNC(=N)N)NC(=O)[C@@H]2CSSC[C@@H]3NC(=O)[C@H](CO)NC(=O)[C@H]([C@@H](C)O)NC(=O)[C@@H]4CCCN4C(=O)[C@H](C)NC(=O)[C@H](Cc4c[nH]c5ccccc45)NC(=O)[C@H](CC(=O)O)NC(=O)CNC(=O)[C@H](CCCNC(=N)N)NC(=O)CNC(=O)[C@H](CCC(N)=O)NC(=O)[C@@H]4CCCN4C(=O)[C@@H](NC(=O)CNC(=O)C(C)F)CSSC[C@H](NC(=O)CNC(=O)[C@H](C)NC(=O)[C@H](CC(C)C)NC(=O)[C@H](CSSC[C@@H](C(=O)NCC(N)=O)NC(=O)[C@H]([C@@H](C)O)NC(=O)[C@H](CCCNC(=N)N)NC(=O)[C@@H]4CCCN4C1=O)NC(=O)[C@H](CC(=O)O)NC(=O)[C@H](CO)NC(=O)[C@H](CC(=O)O)NC(=O)[C@H](CCC(N)=O)NC(=O)[C@H](CO)NC3=O)C(=O)N[C@@H](C(C)C)C(=O)N2 (stereo partly drawn) [fluorine-18 labelled]		nude mice, U-87 MG xenograft, tumour	dose not given, 2.5 h post-injection, together with: c(RGDyK) 330 µg co-injected	relative to: without blocking	reduction of tumour uptake	~60%
CCCC[C@H](NC(C)=O)C(=O)N[C@H]1CC(=O)NCCCC[C@@H](C(=O)O)NC(=O)[C@H](Cc2c[nH]c3ccccc23)NC(=O)[C@H](CCCNC(=N)N)NC(=O)[C@@H](Cc2ccccc2)NC(=O)[C@H](Cc2c[nH]cn2)NC1=O		obese women	sc, 2.5 mg three times daily, 16 days	relative to: placebo	body weight loss	2.1 kg
O=C(NCCCCN1CCN(c2cccc(Cl)c2Cl)CC1)c1ccc(-c2cccnc2)cc1		rat, unilateral 6-OHDA lesion	ip, 3 mg/kg, together with: L-dopa 8 mg/kg + benserazide 8 mg/kg		reduction of total AIMs	35.1 ± 9.1%
CCCCc1nc(Cl)c(CO)n1Cc1ccc(-c2ccccc2-c2nn[nH]n2)cc1		isolated rat cremaster arterioles	10 µM, together with: post-immune serum 1:100	relative to: baseline	vessel diameter	97 ± 3%
Fc1ccc2[nH]c(-c3ccc(OCc4ccccc4)cc3)nc2c1	ABTS scavenging, absorbance				IC50	1640 nM
CC(C)c1nc(N(C)S(C)(=O)=O)nc(-c2ccc(F)cc2)c1/C=C/[C@@H](O)C[C@@H](O)CC(=O)O		human	dose not given, 10 days	relative to: baseline, decrease	LDL-C change	43.7%
N#CC[C@H](C1CCCC1)n1cc(-c2ncnc3[nH]ccc23)cn1		Ryr2 R176Q/WT CPVT mouse	intraperitoneal, 75 mg/kg, 10 min before test, induced ventricular arrhythmia		arrhythmia duration	decreased
O=C(/C=C/c1ccc(O)c(O)c1)O[C@H](Cc1ccc(O)c(O)c1)C(=O)O	CUPRAC		unit not given	relative to: Trolox	CUPRAC antioxidant capacity	608.2 ± 1.2
COc1ccccc1[C@H](Cn1c(=O)n(C(C)(C)C(=O)O)c(=O)c2c(C)c(-c3ncco3)sc21)OC1CCOCC1	fructose-stimulated hepatic de novo lipogenesis	human	oral, 20 mg	at least 70% inhibition	duration of DNL inhibition	≥ 6 h
PACAP	refers to: ADAM10	APP V717I transgenic mice, brain	intranasal, dose not given, 3 months	relative to: vehicle	mRNA level	115 ± 7.8%
Cc1ccc(NC(=O)c2ccc(CN3CCN(C)CC3)cc2)cc1Nc1nccc(-c2cncc(-c3oncc3C)c2)n1		mild-to-moderate Parkinson's disease patients	oral, 100 mg once daily, day 7, practically defined OFF state	direction not given	MDS-UPDRS part II score	8.2 ± 4.9
CC1(C)CCC(CN2CCN(c3ccc(C(=O)NS(=O)(=O)c4ccc(NCC5CCOCC5)c([N+](=O)[O-])c4)c(Oc4cnc5[nH]ccc5c4)c3)CC2)=C(c2ccc(Cl)cc2)C1	cell kill, PI exclusion flow cytometry	normal CD21+ B lymphocytes, dog, lymph node	24 h		EC50	92 ± 140 nM
Polymyxin B		human whole blood	125 ng/mL, 4 h, 37 °C, together with: E. coli LPS 0.5 ng/mL	relative to: LPS without compound	IL-10 release	38.5 ± 16.2%
O=C(CCc1cccc(O)c1)N1CCN(Cc2ccc(F)cc2)CC1		zebrafish AB wild type, head melanin	60 µM, 45 h, from 6 hpf		pigmentation inhibition	6.83 ± 5.4%

Some of these lines once more:
Molecule	assay	system	conditions	scale	endpoint	result
CN(C(=O)c1c(Oc2ccc(F)cc2)nc2ncccn12)c1ccc(Cl)cc1		Golden Syrian hamster, male, diet-induced obese, plasma	intraperitoneal, 6 mg/kg, week 5	relative to: vehicle	remnant cholesterol reduction	41.6%
Ac-CSNLSTCXLGKLSQDLHRLQTYPKTDVGANAP-NH2 (N-acetyl, C-amide)		peptide, ZDF rats	1.5 and 3 nmol/kg every 3 days, 8 weeks	relative to: vehicle	plasma insulin	increased
Cc1ccn2c(Nc3ccc(Cl)cc3)c(-c3ccc(S(C)(=O)=O)cc3)nc2c1	formalin test	male Wistar rat	intraperitoneal, 40 mg/kg	relative to: control group	pain score AUC	decreased
Nc1ncnc2c1ncn2[C@H]1[C@H](O)[C@H](O)[C@@]2(CP(=O)(O)O)C[C@H]12	echocardiography	CSQ heart failure mouse	subcutaneous minipump, 3.3 µM, 28 days	relative to: vehicle	fractional shortening	no effect
